# Experimental data pooled from the literature.
# Every numbered part comes from another study and shows a few of its results, in no order. Changes are numbered by the printed parent chain.

# Set 1
# Target: ABI1, truncated, D143A, DHFR fusion (Arabidopsis thaliana)
# Method: DHFR PCA, deep sequencing
# Medium: yeast
# Notes: methotrexate growth selection, single substitutions
# Together with: (+)-ABA 4.8 µM
# Baseline: wild-type fitted maximum
# Reading: higher = stronger binding
# Starting sequence: PYL1, truncated, DHFR fusion (Arabidopsis thaliana); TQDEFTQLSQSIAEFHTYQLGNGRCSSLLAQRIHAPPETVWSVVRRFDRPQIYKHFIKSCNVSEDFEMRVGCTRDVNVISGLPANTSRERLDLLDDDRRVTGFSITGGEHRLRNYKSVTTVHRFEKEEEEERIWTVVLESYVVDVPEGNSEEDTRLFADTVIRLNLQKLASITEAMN
Substitution,relative binding score [%]
S140R,4.77
G23L,25.6
T119A,-3.3
E89C,0.0357
G71V,-6.74
T17V,31.5
C25W,-10.5
S11L,48.9
G81W,-2.48
D97C,54.3
G107R,6.13
C72P,-6.84
F157Q,-2.98
A175H,69.5
P36E,60.7
S9F,43.3
V118L,18.4
S27Q,38
V121S,1.29
N177C,85.9
R46G,14.4
T119S,0.276
S140T,7.12
S140Y,9.6
R163C,19.1

# Set 2
# Target: Centromere-binding protein 1, full length, N-terminal tag (CBF1, Saccharomyces cerevisiae, UniProt P17106, residues 1-351)
# Sequence of UniProt P17106 (whole entry, looked up): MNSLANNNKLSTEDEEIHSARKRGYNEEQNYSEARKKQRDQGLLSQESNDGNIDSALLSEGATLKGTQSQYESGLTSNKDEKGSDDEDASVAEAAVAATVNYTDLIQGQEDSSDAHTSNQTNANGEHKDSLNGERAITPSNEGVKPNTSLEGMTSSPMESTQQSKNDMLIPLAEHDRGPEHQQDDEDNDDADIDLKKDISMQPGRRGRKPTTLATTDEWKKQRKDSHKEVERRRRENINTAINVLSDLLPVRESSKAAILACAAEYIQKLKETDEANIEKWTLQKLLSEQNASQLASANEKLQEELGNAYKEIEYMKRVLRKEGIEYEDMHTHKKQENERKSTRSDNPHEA
# Method: protein-binding microarray
# Form: double-stranded DNA, one strand shown
# Medium: in vitro
# Tested at: 0.8 µM
# Notes: whole 60-bp probe, no competitor
# Reading: higher = stronger binding
Strand,fluorescence intensity [a.u.]
CTAGGCAACACTAATCACGCAACGCTAGAACTCTTCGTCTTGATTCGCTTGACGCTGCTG,575
GAATTCTGTTCATCGCATGTGCATATATATATATAGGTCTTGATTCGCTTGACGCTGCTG,2330
GAATAGTTGCGGTAGAACGTGATGTTGATATAGTAGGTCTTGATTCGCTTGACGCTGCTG,1420
GAAGTCAACTCCATTCACATGCATCAGTTGAAATAGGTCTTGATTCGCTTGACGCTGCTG,626
CTAAGAGAGAGCAAGCGGGTGAGTATTCGTTTCTTCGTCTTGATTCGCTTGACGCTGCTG,485
CTAAAAGAAAAGTTTCACATGAGAAGCACTGATTTCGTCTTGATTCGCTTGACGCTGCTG,513
TGTACGAAGCTATCACATGTGAATATAGTAGTTAGGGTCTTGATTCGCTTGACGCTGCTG,1940
CTAAGGATATGACATCATGAGAAAAAAATGAGCTTCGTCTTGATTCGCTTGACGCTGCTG,525
GAAAGCTACATTGTTCACCATATTATACTATATTAGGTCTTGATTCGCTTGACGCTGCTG,503
GAATTATAATATGGTTCACGTGCGCTTCATCTTTAGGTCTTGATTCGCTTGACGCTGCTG,4220
CTATTATGTTTAATCCACGTTACACCACCAATTTTCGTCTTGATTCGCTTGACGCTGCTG,591
CTATGCAGGACTGGGCACGTTTTACAATACGTATTCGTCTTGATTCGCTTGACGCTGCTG,657
GAAGTTTGCAATCATCACCATCTGCACGTTGTTTAGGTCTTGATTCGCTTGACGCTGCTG,640
GAAATACTTCTTCGTGATGCGAATTTGATTGACTAGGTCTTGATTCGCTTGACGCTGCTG,586
CTACATCGATGTATTCTGATGCAGCCAAAATTGTTCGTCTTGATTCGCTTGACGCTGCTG,503
GAAAATGACTAGAATGGGCACGTGATCATAAAATAGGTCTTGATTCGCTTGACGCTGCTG,29000
GAAGCATATTAATATCACCATCATTTCTCCTCCTAGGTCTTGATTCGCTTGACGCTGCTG,504
CTAAAAGACATATAAAACGTGTATTAGATAGAATTCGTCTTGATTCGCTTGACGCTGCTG,542
CTAAACTATAAATCACATGTGCTGTCAAGAGATTTCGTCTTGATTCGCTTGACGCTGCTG,2310
CTAGGAACTAGACCCCACGTCAGCGGGCCTAGGTTCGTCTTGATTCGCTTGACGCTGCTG,470
CTATGGGTAGAGCGGCACATGGATGTAACAATCTTCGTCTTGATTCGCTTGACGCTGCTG,564
CTAATACATCACTGATACGTGCGTCTATTGCGCTTCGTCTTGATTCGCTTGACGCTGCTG,538
CTATACGGACATAAGAACGTGCCGCCCATTCTGTTCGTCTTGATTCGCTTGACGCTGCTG,658
CTAATATATCGCTAGCATGCGTGAGTTATGGATTTCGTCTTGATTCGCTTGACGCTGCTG,531
CCTAACTACTATACCGGCGTGCAATAGCTTCGTACAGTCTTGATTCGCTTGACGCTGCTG,518

# Set 3
# Target: RNA binding protein fox-1 homolog 2, RRM domain, GST-SBP tag (RBFOX2, Homo sapiens, UniProt O43251-10, residues 100-194)
# Method: RNA Bind-n-Seq
# Form: RNA
# Medium: in vitro
# Tested at: 365 nM
# Notes: natural RNA segment, single round, ends assumed
# Baseline: no-protein control
# Reading: higher = stronger binding
# Construct (chain): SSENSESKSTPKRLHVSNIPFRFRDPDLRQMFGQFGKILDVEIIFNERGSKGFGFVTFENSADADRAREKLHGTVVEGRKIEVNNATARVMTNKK
Strand,RBNS enrichment (R)
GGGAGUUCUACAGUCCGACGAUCCCUCUUCCACUUGAAAUGACUCUAAGGUUUUCAUUUUAUUCAAGCUUUGUGGGACAGACAAACUUUUUAAAAAUUACUUUGUUGACUGACAAACCAGCUGCCAGCUUCUGUGGAAUUCUCGGGUGCCAA,0.514
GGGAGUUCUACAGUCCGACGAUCUAGUCUAAAUUAUUUCAACUGGAAAAAAGAAAAAAGAGUCCUCUUCUUUUCCCAGCCUUUUGCAGAACACAGUAGACAGAACUGCCACCUUCAAUUGGUACUUUAUUCUUUGGAAUUCUCGGGUGCCAA,0.312
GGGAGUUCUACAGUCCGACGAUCCACUGUUUCAAAAGCGUCAACUCUGUGUUCCUAGUUUCGAUGAACUCCCCAUUCAUUUUUAACACACUUCCCAGAUAAGGCAAUGUGCUGGACAGGCACACGGCAUGGCCUGGAAUUCUCGGGUGCCAA,1.02
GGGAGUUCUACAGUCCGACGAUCCAUAUUUAUGGCCAGGCAUUCUAUCUGUUAGACAAUCGAGUUGGGGGUAGGGCAGCCUAGCUCUUUUUGUCACCUUGCCCCGAGCCCUCUUCAGUCUUCCUGUUCACCCCUGGAAUUCUCGGGUGCCAA,0.339
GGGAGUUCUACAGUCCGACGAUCCUUGUCUUAGAUAGAAAAGAGCCUUCUCCAAGAGCAAUGUCAAAACUUGGGCUGUCAUCUUUGAGCUGUUUACCAAAAUACAGACCAUUAUUGAAGAAAAACAAAUUAUCUGGAAUUCUCGGGUGCCAA,0.75
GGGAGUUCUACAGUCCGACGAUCAUUAGGGCUAGUGACUUUCUCAAACUCAGAAGCUAAAAAGCAGCCUAGAUGACUAUGCACACACUGGGUUUCAAGAUGAAAUCUUCUUAUAUAUUCAGAUGGAAAAAAAUUGGAAUUCUCGGGUGCCAA,0.214
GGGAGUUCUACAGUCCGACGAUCAUGCAUGAGGCCAAGAAACUAGCCAAGCUUCCCUUUAGGGGCAUUUGAGCUCUGGGGAGAAAGGAUAUGAGGAGUCUACACUGACCUUCCACUUCUUUUUUCACCCAGUUUGGAAUUCUCGGGUGCCAA,28
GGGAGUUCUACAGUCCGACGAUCAAGUAAAGCACCCUUUUGUAAUGCAAUUAAUUAUCCCUUAAUGUAUCUGUUUUGUAAGUCUGCAUUUUUGUAUAUCGGAUUUACCUUAAGCUUCUCUAGUGAGGCAUUCUUGGAAUUCUCGGGUGCCAA,0.782
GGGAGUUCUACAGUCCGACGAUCGCUGUCUUUUCUACGAUAGAGAAUCUUUAUUUGUAAGGAAUGUUUCAGGCCUAGACAUACAUGAAACUUAUUUUUGAGGUUUUUGUGCUUUUGGUAUUUUCAUGUGUUACUGGAAUUCUCGGGUGCCAA,0.305

# Set 4
# Target: Ras GTPase-activating protein-binding protein 1, full length (G3BP1, Homo sapiens, UniProt Q13283)
# Sequence of UniProt Q13283 (whole entry, looked up): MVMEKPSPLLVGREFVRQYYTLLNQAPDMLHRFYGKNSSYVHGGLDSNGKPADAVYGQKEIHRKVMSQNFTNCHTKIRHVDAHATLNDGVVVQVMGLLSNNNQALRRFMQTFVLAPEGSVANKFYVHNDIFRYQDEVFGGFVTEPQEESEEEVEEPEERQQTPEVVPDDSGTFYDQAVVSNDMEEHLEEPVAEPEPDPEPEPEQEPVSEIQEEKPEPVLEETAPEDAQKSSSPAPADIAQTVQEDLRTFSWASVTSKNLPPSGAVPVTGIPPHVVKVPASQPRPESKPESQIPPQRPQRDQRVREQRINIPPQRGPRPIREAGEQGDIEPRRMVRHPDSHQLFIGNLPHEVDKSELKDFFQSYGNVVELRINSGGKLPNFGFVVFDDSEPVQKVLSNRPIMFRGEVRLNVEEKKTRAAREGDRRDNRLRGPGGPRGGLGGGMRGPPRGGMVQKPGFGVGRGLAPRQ
# Method: RNA Bind-n-Seq
# Form: RNA
# Medium: in vitro
# Tested at: 200 nM
# Notes: whole 134-nt RNA, ends assumed
# Together with: 150 mM LiCl
# Baseline: input library
# Reading: higher = stronger binding
# All molecules: 7-deaza-guanosine replaces G
Strand,log2 enrichment
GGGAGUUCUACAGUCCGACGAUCAGUCCUGUGCUACACAUCGUAUGUACCGAAUCGGGGUUUUUUUGGGGUGGGGAGGGGAAAGUAUUAUGUUACGCCGUUCGGAUCUGCACUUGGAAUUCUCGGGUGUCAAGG,0.883
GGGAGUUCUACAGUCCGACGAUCGUCCUGUGCUACACAUCGUAUGUACCGAAUCGGGGUGGGGAAAGGGGAAAAAAAGGGGAAAGUAUUAUGUUACGCCGUUCGGAUCUGCACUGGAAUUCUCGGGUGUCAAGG,0.457
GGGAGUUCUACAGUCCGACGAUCCUCAAGUCCUGUGCUACACAUCGUAUGUACCGAAUCGGGUGGGAGGGUUUGGGAAAGUAUUAUGUUACGCCGUUCGGAUCUGCACUUCCAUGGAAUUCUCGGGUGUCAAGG,-0.21
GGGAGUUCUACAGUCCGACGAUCUAACUUUAGAGGAGGAUCUGAUGGAUAUGGCAGUGGACGUGUAUUUGGGGAUGGCUAUAAUGGGUAUGGAGGAGGACCUGGAGGUGGCAAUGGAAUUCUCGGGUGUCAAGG,-0.0103
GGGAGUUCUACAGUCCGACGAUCGCAGGAAGUAAAAACAAAUGGAAAUGCUUCGGAUAGUGGCAGGGGUGGGGGUUGCUAAGGAAAAAGUGGGAUGGGAGUGGGUAAAGAGUUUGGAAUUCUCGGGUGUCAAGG,0.496
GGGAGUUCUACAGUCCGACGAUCUGGGAGGUGGAUUUUGUUUAUUUUUUUAGCUCAUUUCCAGUGGUGGGAAUUUUUUUUUAAUAUGUGUCAUGAAUAAAGUUGUUUUUGAAAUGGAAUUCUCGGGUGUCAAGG,-0.806
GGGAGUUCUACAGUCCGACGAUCUAACUUUAGAGGAGGAUCUGAUGGAUGUGGCAGUGGACGUGGAUUUGGGGAUGGCUAUAAUGGGUAUGGAGGAGGACCUGGAGGUGGCAAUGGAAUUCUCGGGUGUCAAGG,0.111
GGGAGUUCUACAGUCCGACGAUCUGGGAGGUGGAUUUUGGUUAUUUUUUUAGCUCAUUUCCAGGGGUGGGAAUUUUUUUUUAAUAUGUGUCAUGAAUAAAGUUGUUUUUGAAAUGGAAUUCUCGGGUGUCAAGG,-0.06
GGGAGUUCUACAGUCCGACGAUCGCAGGAAGUAAAAACAAAUGGAAAUGCUUCGGAUAGUGGCAGGGGUGGGGGUUGCUAAAAAAAGGGUGGGAUGGGAGUGGGUAAAGAGUUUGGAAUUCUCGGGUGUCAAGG,0.108
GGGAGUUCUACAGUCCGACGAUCAGUCCUGUGCUACACAUCGUAUGUACCGAAUCAAACCCCCAAACCCAAACCCCCAAAAAAGUAUUAUGUUACGCCGUUCGGAUCUGCACUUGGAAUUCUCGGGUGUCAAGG,-0.199
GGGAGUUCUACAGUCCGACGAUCGUCCUGUGCUACACAUCGUAUGUACCGAAUCGGGAAAAAGGGAAAAAGGAAAAAGGGGAAAGUAUUAUGUUACGCCGUUCGGAUCUGCACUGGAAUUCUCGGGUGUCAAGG,-0.0182

# Excerpt of the above (set 1):
Substitution,relative binding score [%]
G81W,-2.48
D97C,54.3
G107R,6.13
C72P,-6.84
F157Q,-2.98
